Experimental data collected from several papers.
Each line is one published result; not all experiments were run side by side. Numbers after ± are the reported error.
Sequence of UniProt Q5S007 (whole entry, unmodified, looked up): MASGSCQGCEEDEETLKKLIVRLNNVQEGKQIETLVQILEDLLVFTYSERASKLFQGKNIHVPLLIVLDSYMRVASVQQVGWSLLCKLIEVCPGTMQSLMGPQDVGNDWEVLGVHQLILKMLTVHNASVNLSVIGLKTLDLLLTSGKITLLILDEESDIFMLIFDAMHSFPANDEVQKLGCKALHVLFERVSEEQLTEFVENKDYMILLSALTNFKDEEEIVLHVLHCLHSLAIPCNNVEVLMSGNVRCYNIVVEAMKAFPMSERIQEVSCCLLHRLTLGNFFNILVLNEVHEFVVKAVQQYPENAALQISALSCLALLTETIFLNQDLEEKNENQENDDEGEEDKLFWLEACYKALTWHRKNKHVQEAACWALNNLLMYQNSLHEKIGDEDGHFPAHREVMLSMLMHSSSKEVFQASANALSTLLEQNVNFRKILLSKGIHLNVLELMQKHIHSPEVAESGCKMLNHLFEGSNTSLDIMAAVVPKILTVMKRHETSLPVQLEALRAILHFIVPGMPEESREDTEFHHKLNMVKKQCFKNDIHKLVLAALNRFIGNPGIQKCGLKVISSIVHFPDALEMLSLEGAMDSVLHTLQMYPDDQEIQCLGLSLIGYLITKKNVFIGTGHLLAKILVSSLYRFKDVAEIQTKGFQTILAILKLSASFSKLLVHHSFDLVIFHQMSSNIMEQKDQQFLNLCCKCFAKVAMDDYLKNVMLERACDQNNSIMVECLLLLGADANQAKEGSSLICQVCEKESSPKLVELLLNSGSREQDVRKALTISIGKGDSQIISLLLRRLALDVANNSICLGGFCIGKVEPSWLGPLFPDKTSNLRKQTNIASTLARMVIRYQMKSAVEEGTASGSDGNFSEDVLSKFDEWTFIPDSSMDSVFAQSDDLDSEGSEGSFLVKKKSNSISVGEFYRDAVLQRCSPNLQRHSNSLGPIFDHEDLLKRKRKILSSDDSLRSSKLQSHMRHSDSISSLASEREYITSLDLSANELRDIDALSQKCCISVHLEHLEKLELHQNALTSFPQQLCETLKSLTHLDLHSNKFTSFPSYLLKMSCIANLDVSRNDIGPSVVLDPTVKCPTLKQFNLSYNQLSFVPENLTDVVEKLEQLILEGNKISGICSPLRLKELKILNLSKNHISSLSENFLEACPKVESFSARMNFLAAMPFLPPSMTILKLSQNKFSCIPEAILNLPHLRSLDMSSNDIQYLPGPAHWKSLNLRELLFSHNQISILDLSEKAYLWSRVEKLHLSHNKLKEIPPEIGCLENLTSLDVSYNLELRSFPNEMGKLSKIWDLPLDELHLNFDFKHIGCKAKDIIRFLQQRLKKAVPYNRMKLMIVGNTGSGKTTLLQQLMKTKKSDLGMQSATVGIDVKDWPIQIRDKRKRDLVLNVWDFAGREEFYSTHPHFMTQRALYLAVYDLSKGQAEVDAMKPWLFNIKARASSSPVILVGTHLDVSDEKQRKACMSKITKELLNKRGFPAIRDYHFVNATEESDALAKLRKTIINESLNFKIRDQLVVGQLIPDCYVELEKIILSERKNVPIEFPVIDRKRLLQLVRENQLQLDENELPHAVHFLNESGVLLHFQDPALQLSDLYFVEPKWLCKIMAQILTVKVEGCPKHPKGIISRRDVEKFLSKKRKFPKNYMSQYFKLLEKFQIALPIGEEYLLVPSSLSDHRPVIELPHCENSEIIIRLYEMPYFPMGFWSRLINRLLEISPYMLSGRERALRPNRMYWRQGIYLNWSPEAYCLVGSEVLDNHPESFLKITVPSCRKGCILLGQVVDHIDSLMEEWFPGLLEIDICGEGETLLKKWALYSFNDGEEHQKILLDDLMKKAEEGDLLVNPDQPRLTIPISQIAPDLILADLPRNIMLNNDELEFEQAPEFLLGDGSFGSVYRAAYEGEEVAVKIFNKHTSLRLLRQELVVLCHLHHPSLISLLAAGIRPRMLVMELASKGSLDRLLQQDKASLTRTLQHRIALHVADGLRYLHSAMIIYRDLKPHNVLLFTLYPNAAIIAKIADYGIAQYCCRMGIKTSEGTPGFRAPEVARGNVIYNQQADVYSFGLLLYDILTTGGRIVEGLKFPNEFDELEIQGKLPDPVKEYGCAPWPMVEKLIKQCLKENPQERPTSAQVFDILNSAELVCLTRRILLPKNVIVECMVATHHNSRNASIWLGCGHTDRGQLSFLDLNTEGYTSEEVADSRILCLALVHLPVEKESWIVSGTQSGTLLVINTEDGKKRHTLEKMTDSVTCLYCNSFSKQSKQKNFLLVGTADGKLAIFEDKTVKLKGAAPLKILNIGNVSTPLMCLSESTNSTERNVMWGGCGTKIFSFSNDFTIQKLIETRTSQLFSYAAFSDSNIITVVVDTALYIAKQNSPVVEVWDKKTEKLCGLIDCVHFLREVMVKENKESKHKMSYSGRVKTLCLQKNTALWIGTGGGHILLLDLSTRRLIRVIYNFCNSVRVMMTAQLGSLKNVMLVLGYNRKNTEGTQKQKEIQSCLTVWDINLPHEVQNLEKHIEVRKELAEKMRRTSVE
Sequence of UniProt Q96RI9 (whole entry, looked up): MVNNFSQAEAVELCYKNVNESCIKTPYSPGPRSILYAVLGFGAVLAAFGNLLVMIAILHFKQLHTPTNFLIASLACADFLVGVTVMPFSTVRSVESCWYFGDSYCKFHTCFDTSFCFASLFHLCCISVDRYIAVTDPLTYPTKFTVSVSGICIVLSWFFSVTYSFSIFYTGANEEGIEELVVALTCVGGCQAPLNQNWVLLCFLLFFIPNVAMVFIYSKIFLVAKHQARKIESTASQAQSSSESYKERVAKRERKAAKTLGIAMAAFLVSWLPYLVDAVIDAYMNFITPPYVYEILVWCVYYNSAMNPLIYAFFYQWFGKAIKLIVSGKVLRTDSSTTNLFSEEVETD
Sequence of UniProt O95372 (whole entry, looked up): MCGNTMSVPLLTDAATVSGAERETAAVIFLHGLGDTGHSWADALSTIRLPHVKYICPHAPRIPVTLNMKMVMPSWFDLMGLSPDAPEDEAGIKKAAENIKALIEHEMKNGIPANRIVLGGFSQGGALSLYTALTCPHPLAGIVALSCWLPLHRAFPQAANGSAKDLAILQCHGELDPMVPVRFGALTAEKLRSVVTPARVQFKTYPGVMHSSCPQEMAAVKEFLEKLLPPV
Sequence of UniProt P04843 (whole entry, looked up): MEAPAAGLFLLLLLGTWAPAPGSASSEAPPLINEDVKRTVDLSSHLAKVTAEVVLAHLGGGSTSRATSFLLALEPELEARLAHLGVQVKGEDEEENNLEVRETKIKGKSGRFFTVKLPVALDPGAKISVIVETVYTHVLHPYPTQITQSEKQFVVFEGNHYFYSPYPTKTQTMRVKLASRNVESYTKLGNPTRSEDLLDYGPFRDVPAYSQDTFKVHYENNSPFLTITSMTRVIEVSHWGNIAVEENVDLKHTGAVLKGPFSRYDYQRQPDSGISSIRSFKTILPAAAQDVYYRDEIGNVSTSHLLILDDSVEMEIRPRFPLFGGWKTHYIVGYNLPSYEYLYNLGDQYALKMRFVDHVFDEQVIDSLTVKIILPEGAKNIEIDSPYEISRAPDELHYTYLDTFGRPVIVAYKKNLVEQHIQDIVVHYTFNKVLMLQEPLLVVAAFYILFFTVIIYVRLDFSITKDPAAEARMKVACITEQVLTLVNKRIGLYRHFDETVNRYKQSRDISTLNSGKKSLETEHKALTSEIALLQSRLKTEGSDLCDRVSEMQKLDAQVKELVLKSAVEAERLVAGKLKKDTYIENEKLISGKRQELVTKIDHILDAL
Sequence of UniProt P18825 (whole entry, looked up): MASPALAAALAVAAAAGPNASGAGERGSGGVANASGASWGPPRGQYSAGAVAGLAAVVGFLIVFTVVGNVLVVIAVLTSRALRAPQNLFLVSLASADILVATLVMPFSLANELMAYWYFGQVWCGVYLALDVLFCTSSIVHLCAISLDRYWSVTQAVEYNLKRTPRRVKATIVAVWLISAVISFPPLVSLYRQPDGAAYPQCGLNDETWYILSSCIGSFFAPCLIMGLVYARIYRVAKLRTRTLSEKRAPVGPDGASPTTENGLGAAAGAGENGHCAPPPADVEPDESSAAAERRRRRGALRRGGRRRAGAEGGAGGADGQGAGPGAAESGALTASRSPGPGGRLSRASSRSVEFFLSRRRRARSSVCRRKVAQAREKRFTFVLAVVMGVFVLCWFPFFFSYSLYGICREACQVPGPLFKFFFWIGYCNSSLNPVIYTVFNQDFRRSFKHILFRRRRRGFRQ
Sequence of UniProt P29275 (whole entry, looked up): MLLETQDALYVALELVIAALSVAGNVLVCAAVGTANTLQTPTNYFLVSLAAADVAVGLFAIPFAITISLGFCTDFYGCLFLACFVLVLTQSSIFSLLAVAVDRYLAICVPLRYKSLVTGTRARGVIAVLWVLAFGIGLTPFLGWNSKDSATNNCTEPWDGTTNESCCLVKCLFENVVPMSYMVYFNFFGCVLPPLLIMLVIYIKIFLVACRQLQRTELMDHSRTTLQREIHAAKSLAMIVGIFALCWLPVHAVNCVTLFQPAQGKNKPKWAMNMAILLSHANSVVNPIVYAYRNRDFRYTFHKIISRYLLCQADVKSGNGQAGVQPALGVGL

CC(C)[C@@H]1NC(=O)[C@H](Cc2ccccc2)NC(=O)[C@@H]2NC(=O)[C@H](Cc3ccccc3)NC(=O)[C@@H]3CCCN3C(=O)CNC(=O)[C@H](Cc3ccccc3)NC(=O)[C@@H]3CNCCCC[C@@H](C(=O)O)NC(=O)[C@@H]4NC(=O)[C@H](CC(N)=O)NC(=O)CNC(=O)[C@H]([C@@H](O)C(=O)O)NC(=O)[C@H](CSC[C@@H](NC(=O)[C@H](CCC(N)=O)NC(=O)[C@H](CCCCNC(=O)c5ccc(NN)nc5)NC(=O)[C@@H](N)CS[C@H]4C)C(=O)N[C@@H](CS[C@H]2C)C(=O)N3)NC1=O [technetium-99m labelled]  tissue uptake (rat, saline control, blood; intravenous, 2 h after tracer, tracer 24 h after reperfusion): 0.12 ± 0.03 %ID/g
O=C(Nc1ccccc1)C1CCN(C(=O)Oc2cccnc2)CC1  change in Time score (psychotropic effects VAS; healthy women; 60 mg; baseline: pre-dose baseline, direction not given): 4.7
CC[C@H](C)[C@H](NC(=O)[C@H](Cc1ccccc1)NC(=O)[C@H](CCC(=O)O)NC(=O)[C@H](CCCNC(=N)N)NC(=O)[C@H](C)NC(=O)[C@H](C)NC(=O)[C@H](CCC(N)=O)NC(=O)[C@H](CCC(=O)O)NC(=O)[C@H](CCC(=O)O)NC(=O)[C@H](CC(C)C)NC(=O)[C@H](Cc1ccc(O)cc1)NC(=O)[C@H](CO)NC(=O)[C@H](CO)NC(=O)[C@@H](NC(=O)[C@H](CC(=O)O)NC(=O)[C@H](CO)NC(=O)[C@@H](NC(=O)[C@H](Cc1ccccc1)NC(=O)[C@@H](NC(=O)CNC(=O)[C@H](CCC(=O)O)NC(=O)[C@H](C)NC(=O)CCc1c[nH]cn1)[C@@H](C)O)[C@@H](C)O)C(C)C)C(=O)N[C@@H](C)C(=O)N[C@@H](Cc1c[nH]c2ccccc12)C(=O)N[C@@H](CC(C)C)C(=O)N[C@H](C(=O)N[C@@H](CCCNC(=N)N)C(=O)NCC(=O)N[C@@H](CCCNC(=N)N)C(=O)N[C@@H](CCCCNC(=O)COCCOCCNC(=O)COCCOCCNC(=O)CC[C@H](NC(=O)CCCCCCCCCCCCCCCCC(=O)O)C(=O)O)C(=O)NCC(=O)NCC(=O)N[C@@H](CO)C(=O)N[C@@H](CCCCNc1c(NCCCCCN(O)C(=O)CCC(=O)NCCCCCN(O)C(=O)CCC(=O)NCCCCCN(O)C(C)=O)c(=O)c1=O)C(=O)O)C(C)C [zirconium-89 labelled]  tissue uptake (gamma counting; rat, skin of neck; intravenous, 3 nmol/kg, 72 h): 0.18 %ID/g
C[C@H]1CN(c2n[nH]c3nc(N[C@H]4CC[C@H](NS(=O)(=O)CCC(F)(F)F)CC4)ncc23)CCO1  remaining binding (Dolichyl-diphosphooligosaccharide--protein glycosyltransferase subunit 1 (Homo sapiens, UniProt P04843); Kinobeads competition, measured: RPN1; 0.8 µM, unit not given; baseline: vehicle): 1.23
[O-][S+]1CCc2nc(N3CCC(c4ncc(Cl)cn4)CC3)nc(NC3(CO)CCC3)c21 (centres unmarked)  adverse event incidence (measured: gastrointestinal disorders; healthy male humans; 48 mg single dose): 16.7%
O=C(Nc1cccnn1)N1CCC(=Cc2cccc(Oc3ccc(C(F)(F)F)cn3)c2)CC1  inhibition (Alpha-2C adrenergic receptor (ADRA2C, Homo sapiens, UniProt P18825); binding; 10 µM, together with: [3H]rauwolscine): 18%
CC1(C)[C@H](C=C(Cl)Cl)[C@H]1C(=O)OCc1cccc(Oc2ccccc2)c1  CLint (pooled human liver cytosol): 1100 µL/min/mg
CO[C@H]1C[C@@H]2CC[C@@H](C)[C@@](O)(O2)C(=O)C(=O)N2CCCC[C@H]2C(=O)O[C@H]([C@H](C)C[C@@H]2CC[C@@H](OC(=O)NCCOCCOCCOCCOCCOCCOCCOCCOCCC(=O)N3CCc4cc(Cn5nc(-c6ccc7oc(N)nc7c6)c6c(N)ncnc65)ccc4C3)[C@H](OC)C2)C[C@@H](O)[C@H](C)/C=C(\C)[C@@H](O)[C@@H](OC)C(=O)[C@H](C)C[C@H](C)/C=C/C=C/C=C/1C  TRAE incidence (phase 1 dose escalation, measured: diarrhoea; advanced solid tumour patients; intravenous, 8 mg weekly, any grade): 25%
CC(C)C[C@@H]1NC(=O)CNC(=O)[C@H](CC(N)=O)NC(=O)[C@H](CCCNC(=N)N)NC(=O)[C@H]([C@@H](C)O)NC(=O)[C@@H]2CSSC[C@@H]3NC(=O)[C@H]([C@@H](C)O)NC(=O)CNC(=O)CNC(=O)[C@H](C(C)C)NC(=O)[C@@H]4CSSC[C@H](NC(=O)[C@H]([C@@H](C)O)NC(=O)[C@H](CSSC[C@H](NC(=O)[C@H](C(C)C)NC(=O)[C@@H]5CCCN5C1=O)C(=O)N[C@@H](CCCCN)C(=O)N[C@@H](CCC(=O)O)C(=O)N[C@@H]([C@@H](C)O)C(=O)N4)NC(=O)CNC(=O)[C@@H]1CCCN1C(=O)[C@H]([C@@H](C)O)NC(=O)[C@H](CC(N)=O)NC3=O)C(=O)N[C@@H](CO)C(=O)N[C@@H](Cc1c[nH]c3ccccc13)C(=O)N1CCC[C@H]1C(=O)N[C@@H](C(C)C)C(=O)N2  remaining peptide (HPLC; water; 180 µM, 14 days, 37 °C, deamidation stability): 97.2 ± 2.9%
CN1CCN(c2ccc(Nc3nccc(-c4cccc(F)c4)n3)cc2C(F)(F)F)CC1  toxicity (Danio rerio embryos; 5 µM, 5 d): 0%
CN1CC[C@@H](c2c(O)cc(O)c3c(=O)cc(-c4ccc(C(F)(F)F)cc4Cl)oc23)[C@@H]1CO  patients with adverse event (measured: Thrombocytopenia; relapsed AML; oral, 100 mg, grade 3-4, intermittent dosing): 33.3%
O=C(c1ccc(Cl)cc1)N1CCN2C(=O)N(OC(=O)N3CCOc4ccccc43)C(=O)C2C1 (centres unmarked)  median ratio (Acyl-protein thioesterase 2 (Homo sapiens, UniProt O95372); enzyme activity, inhibitor, MS-based ABPP; SW-620 conditioned medium; 10 µM, 1 h, 37 °C; baseline: compound over DMSO, lower = stronger inhibition): 1.25
CC(C)(O)c1cc(Nc2cc(Oc3cn(C4CC4)nc3C3CCOCC3)ccn2)ccn1  treatment-emergent adverse events (Constipation; advanced cancer patients, grade 4 glioma expansion; oral, 50 mg twice daily, all causality any grade): 8%
C[C@@H](O)[C@@H](CO)NC(=O)[C@@H](CCCNC(=N)N)NC(=O)[C@@H]1CCCN1C(=O)[C@@H]1CSSC[C@H](NC(=O)[C@H](Cc2ccccc2)NC(=O)CN2CCN(CC(=O)O)CCN(CC(=O)O)CCN(CC(=O)O)CC2)C(=O)N[C@@H](Cc2ccc(O)cc2)C(=O)N[C@@H](Cc2ccccc2)C(=O)N[C@@H](CCC(N)=O)C(=O)N[C@@H](CC(N)=O)C(=O)N1 [gallium-68 labelled]  tissue uptake (Wistar rat, healthy, sublingual gland; intravenous, 8 MBq, 30 min, mean): 0.55 %ID/g
N=C(N)NC(=N)Nc1cccc(Cl)c1  IC50 (Plasmodium falciparum; W2): 5.01 µM
Cc1cccc(Cn2nc(C3CC3)c3c(NC(=O)c4cnc5cc(OCCN6CCN(C)CC6)ccn45)cccc32)n1  all-cause adverse events (CTCAE v4.03, measured: blood alkaline phosphatase increased; patients with advanced solid tumours; oral, 400 mg, dose escalation, together with: pembrolizumab 2 mg/kg IV every 3 weeks): 42.9%
Fc1ccc(C(OCCCc2c[nH]cn2)c2ccc(F)cc2)cc1  IC50 (Plasmodium falciparum; GB4): 1 µM
CCN1CCN(Cc2ccc(Nc3ncc(F)c(-c4cc(F)c5nc6n(c5c4)[C@H](C)CCC6)n3)nc2)CC1  decreased appetite any grade (patients with advanced solid tumours; dose not given, phase Ia monotherapy): 20.8%
COc1cc2c(Oc3ccc4[nH]c(C)cc4c3F)ccnc2cc1OCC1(N)CC1  grade 3 Hypertension (paediatric recurrent refractory sarcoma; concentration not given, whole group): 2.9%
O=S(=O)(Nc1ccccc1)c1ccc(NC(=S)Nc2ccccc2)cc1  haematocrit (female mouse, blood; oral, 20 mg/kg daily, 14 days): 42.4%
CCCSc1ccc2nc(NC(=O)OC)[nH]c2c1  neutrophils (mouse, blood; oral, 50 mg/kg, tolerability, mean): 11.7%
Oc1ccc2c3c1O[C@H]1[C@@H](O)CC[C@@]4(O)[C@@H](C2)N(CC2CCC2)CC[C@]314  log2 fold change (Trace amine-associated receptor 9 (TAAR9, Homo sapiens, UniProt Q96RI9); β-arrestin recruitment, TANGO luminescence, measured: TAAR9; concentration not given; baseline: basal luminescence): 0.716
Cn1ncc(-c2nc(N[C@H]3CC[C@H](N)CC3)ncc2Cl)c1CC1CC1  adverse event incidence (measured: dyspnea any grade; human patients phase I; dose not given): 37%
COc1ccc(N2C(=O)N(c3c(C)cccc3Cl)Cc3cnc(Nc4ccc(C5CCN(C)CC5)cc4OC)nc32)nc1  inhibition (Leucine-rich repeat serine/threonine-protein kinase 2 (LRRK2, Homo sapiens, UniProt Q5S007, G2019S); kinase activity, inhibitor; 0.5 µM, complex with -G2019S): 50%
CCN(CCO)CCCC(C)Nc1ccnc2cc(Cl)ccc12 (centres unmarked)  nausea patients (newly diagnosed glioblastoma patients; oral, 400 mg/dose, grade 1, together with: radiotherapy and temozolomide): 57%
Clc1ccc(-c2ccc(Cl)cc2Cl)cc1  literature range factor (polyethylene-water partitioning; PCB compilation; baseline: maximum over minimum K): 1.3
COc1cc2c(cc1OC)CN(CCc1ccc(NC(=O)c3cccc4c(=O)c5cccc(OC)c5[nH]c34)cc1)CC2  Tmax (CD-1 mouse, male, lung; intraperitoneal, 30 mg/kg): 2 h
O=C(O)CCCOc1ccc(F)cc1-c1cc(-c2ccccc2C(F)(F)F)n(-c2ccccc2)n1  leukocyte differential (measured: Eosinophils; Crl:CD(SD) rats, female, blood; iv, 25 µg/kg, 1 day): 1.2 ± 0.5%
CNC(=O)[C@@H](NC(=O)c1cc(OCC2(C)COC2)c(C2CC2)cn1)C(C)(C)C  dose-normalised AUC(0-inf) (C57BL/6 mice, plasma; intravenous, dose not given): 226 kg·ng·h/mL/mg
Nc1nc2cc(-c3ccc4ncc(C(=O)N5CCOCC5)n4c3)ccc2o1  elevated ALT adverse events (human, advanced solid tumours; 100–300 mg once daily): 38%
O[C@H]1CCCN[C@@H]1CCCn1cnc2c(Cl)c(Cl)ccc21  CL/F (healthy humans, plasma; 150 mg single dose): 236 L/h
CC(=O)c1c(C)c2cnc(Nc3ccc(C4CCN(CCS(C)(=O)=O)CC4)cn3)nc2n(C2CCCC2)c1=O  unbound fraction (mice plasma): 0.023
COc1ccc(-c2c(-c3ccc(C#N)c(F)c3)nc(N3CCC(N)CC3)n(C)c2=O)cc1F  serious adverse event incidence (measured: Constipation; human patients; oral, 60 mg, dose expansion): 0%
Clc1cc(Cl)c(-c2cc(Cl)c(Cl)c(Cl)c2Cl)cc1Cl  log K(PDMS-water) (fresh water; 12 (unit not given), 20 °C, S100 sampler, 100 µm): 6.73 ± 0.1
CCN1[C@@H](C(=O)NC23CCC(C(=O)O)(CC2)CC3)[C@H](c2cccc(Cl)c2F)[C@]2(C(=O)Nc3cc(Cl)ccc32)C12CCCCC2  Headache incidence (patients with advanced solid tumours; oral, dose not given, all doses): 4.8%
COc1cc(Nc2ncc(F)c(Nc3ccc4c(n3)NC(=O)C(C)(C)O4)n2)cc(OC)c1OC  IC50 (Adenosine receptor A2b (ADORA2B, Homo sapiens, UniProt P29275)): > 10 µM
C[C@]1(CO)Cc2ncn(-c3ccc(C#N)c(Cl)c3)c2C(=O)O1  drug-related AE incidence (human; concentration not given, European food-effect part): 25%
C=CCNc1c(O)cc2c(O)c1C[C@@H](C)C[C@H](OC)[C@H](O)[C@@H](C)/C=C(\C)[C@H](OC(N)=O)[C@@H](OC)/C=C\C=C(/C)C(=O)N2  QTc interval (human unresectable metastatic GIST or sarcoma; concentration not given): no effect

For quick reference, copied from above:
O=C(O)CCCOc1ccc(F)cc1-c1cc(-c2ccccc2C(F)(F)F)n(-c2ccccc2)n1  leukocyte differential (measured: Eosinophils; Crl:CD(SD) rats, female, blood; iv, 25 µg/kg, 1 day): 1.2 ± 0.5%
CCN1CCN(Cc2ccc(Nc3ncc(F)c(-c4cc(F)c5nc6n(c5c4)[C@H](C)CCC6)n3)nc2)CC1  decreased appetite any grade (patients with advanced solid tumours; dose not given, phase Ia monotherapy): 20.8%
Oc1ccc2c3c1O[C@H]1[C@@H](O)CC[C@@]4(O)[C@@H](C2)N(CC2CCC2)CC[C@]314  log2 fold change (Trace amine-associated receptor 9 (TAAR9, Homo sapiens, UniProt Q96RI9); β-arrestin recruitment, TANGO luminescence, measured: TAAR9; concentration not given; baseline: basal luminescence): 0.716
COc1ccc(N2C(=O)N(c3c(C)cccc3Cl)Cc3cnc(Nc4ccc(C5CCN(C)CC5)cc4OC)nc32)nc1  inhibition (Leucine-rich repeat serine/threonine-protein kinase 2 (LRRK2, Homo sapiens, UniProt Q5S007, G2019S); kinase activity, inhibitor; 0.5 µM, complex with -G2019S): 50%
Clc1cc(Cl)c(-c2cc(Cl)c(Cl)c(Cl)c2Cl)cc1Cl  log K(PDMS-water) (fresh water; 12 (unit not given), 20 °C, S100 sampler, 100 µm): 6.73 ± 0.1
CN1CC[C@@H](c2c(O)cc(O)c3c(=O)cc(-c4ccc(C(F)(F)F)cc4Cl)oc23)[C@@H]1CO  patients with adverse event (measured: Thrombocytopenia; relapsed AML; oral, 100 mg, grade 3-4, intermittent dosing): 33.3%
